Measured values pooled from the literature.
Each line is one published result; not all experiments were run side by side. ± gives the spread as reported.
PSMB6: Proteasome subunit beta type-6 (PSMB6, Homo sapiens, UniProt P28072)
Chain of UniProt P28072 (whole entry, looked up): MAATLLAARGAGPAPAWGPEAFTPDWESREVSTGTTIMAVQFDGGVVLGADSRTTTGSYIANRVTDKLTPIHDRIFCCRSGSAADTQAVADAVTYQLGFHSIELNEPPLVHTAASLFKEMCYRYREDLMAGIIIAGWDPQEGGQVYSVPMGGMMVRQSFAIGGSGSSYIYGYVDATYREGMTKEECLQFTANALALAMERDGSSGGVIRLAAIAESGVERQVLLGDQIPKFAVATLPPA
Genome polyprotein protease: Genome polyprotein, protease (Hepatitis C virus genotype 1b, UniProt O92972)
Chain of UniProt O92972 (whole entry, looked up): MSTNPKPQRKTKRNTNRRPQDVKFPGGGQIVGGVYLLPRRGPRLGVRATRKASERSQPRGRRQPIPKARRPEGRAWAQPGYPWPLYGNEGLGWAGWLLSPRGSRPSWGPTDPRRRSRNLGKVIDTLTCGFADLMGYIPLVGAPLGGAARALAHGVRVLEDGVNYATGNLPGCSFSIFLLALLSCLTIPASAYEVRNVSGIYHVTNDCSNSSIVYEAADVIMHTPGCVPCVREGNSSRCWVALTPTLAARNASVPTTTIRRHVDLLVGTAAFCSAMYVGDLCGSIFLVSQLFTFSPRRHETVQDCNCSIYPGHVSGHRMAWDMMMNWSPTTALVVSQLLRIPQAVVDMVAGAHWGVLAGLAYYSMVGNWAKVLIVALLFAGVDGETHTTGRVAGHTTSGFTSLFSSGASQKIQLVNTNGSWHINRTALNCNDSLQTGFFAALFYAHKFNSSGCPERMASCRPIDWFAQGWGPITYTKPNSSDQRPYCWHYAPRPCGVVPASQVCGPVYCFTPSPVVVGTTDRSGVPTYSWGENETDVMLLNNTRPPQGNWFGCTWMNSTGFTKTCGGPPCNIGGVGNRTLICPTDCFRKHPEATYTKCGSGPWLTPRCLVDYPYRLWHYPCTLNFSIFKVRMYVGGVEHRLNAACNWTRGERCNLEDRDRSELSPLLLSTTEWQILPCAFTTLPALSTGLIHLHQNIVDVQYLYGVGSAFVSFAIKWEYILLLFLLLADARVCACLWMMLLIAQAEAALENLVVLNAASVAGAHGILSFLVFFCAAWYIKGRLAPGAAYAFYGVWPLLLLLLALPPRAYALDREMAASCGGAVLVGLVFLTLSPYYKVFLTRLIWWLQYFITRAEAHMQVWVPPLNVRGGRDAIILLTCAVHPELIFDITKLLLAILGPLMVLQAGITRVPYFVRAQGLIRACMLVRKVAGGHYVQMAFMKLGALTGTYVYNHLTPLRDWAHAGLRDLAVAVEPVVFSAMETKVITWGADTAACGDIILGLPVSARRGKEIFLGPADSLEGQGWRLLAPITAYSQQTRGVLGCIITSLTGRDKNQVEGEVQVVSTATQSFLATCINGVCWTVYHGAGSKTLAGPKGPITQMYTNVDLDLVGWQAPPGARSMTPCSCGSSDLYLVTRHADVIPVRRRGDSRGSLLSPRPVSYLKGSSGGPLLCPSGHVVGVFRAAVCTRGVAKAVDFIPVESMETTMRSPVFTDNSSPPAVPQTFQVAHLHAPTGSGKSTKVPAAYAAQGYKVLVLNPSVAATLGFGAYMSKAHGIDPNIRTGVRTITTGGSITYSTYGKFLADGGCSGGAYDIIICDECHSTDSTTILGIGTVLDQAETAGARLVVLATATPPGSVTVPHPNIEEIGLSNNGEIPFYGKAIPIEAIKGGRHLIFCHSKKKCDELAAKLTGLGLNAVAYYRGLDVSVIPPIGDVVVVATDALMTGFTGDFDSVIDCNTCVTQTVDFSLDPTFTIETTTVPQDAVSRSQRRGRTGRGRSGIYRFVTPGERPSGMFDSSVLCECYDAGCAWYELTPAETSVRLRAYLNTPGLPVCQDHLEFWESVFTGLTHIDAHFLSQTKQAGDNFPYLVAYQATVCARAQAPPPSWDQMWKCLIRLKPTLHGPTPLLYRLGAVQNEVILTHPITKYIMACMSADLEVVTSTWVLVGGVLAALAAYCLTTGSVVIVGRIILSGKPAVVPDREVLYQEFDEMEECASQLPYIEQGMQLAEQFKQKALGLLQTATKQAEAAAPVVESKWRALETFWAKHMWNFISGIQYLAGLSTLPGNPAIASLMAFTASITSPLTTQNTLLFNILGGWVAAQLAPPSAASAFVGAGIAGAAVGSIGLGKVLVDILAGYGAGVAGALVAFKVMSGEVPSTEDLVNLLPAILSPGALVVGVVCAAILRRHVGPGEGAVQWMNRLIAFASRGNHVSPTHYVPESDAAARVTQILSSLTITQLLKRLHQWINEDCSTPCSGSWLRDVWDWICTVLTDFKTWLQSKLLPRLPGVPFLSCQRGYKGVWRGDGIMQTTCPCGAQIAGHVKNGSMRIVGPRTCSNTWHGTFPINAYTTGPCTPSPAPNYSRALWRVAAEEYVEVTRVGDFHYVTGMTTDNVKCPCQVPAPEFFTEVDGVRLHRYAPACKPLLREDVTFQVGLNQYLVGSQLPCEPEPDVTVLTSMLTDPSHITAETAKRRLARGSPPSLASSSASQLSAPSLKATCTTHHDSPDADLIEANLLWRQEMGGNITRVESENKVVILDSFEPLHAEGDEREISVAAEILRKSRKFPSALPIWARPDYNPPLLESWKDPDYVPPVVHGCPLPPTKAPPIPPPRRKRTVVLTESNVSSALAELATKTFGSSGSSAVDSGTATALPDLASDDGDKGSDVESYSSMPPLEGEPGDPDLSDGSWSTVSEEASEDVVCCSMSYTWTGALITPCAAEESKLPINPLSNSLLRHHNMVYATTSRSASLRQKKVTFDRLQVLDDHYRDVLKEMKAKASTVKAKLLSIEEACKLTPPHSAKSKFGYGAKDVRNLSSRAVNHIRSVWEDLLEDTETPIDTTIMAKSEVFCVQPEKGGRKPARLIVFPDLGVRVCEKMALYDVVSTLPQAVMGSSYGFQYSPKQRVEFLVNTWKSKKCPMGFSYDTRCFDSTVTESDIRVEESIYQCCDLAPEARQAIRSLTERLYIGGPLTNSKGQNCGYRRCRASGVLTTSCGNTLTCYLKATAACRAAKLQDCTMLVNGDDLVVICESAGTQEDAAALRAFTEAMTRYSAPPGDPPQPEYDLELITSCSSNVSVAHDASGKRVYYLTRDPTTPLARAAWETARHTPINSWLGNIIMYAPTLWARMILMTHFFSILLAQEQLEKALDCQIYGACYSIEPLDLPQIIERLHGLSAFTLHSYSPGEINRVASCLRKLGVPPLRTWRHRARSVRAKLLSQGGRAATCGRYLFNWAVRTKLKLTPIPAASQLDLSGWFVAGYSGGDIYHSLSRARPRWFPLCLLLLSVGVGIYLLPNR
PIK3CB: Phosphatidylinositol 4,5-bisphosphate 3-kinase catalytic subunit beta isoform (PIK3CB, Homo sapiens, UniProt P42338)
Chain of UniProt P42338 (whole entry, looked up): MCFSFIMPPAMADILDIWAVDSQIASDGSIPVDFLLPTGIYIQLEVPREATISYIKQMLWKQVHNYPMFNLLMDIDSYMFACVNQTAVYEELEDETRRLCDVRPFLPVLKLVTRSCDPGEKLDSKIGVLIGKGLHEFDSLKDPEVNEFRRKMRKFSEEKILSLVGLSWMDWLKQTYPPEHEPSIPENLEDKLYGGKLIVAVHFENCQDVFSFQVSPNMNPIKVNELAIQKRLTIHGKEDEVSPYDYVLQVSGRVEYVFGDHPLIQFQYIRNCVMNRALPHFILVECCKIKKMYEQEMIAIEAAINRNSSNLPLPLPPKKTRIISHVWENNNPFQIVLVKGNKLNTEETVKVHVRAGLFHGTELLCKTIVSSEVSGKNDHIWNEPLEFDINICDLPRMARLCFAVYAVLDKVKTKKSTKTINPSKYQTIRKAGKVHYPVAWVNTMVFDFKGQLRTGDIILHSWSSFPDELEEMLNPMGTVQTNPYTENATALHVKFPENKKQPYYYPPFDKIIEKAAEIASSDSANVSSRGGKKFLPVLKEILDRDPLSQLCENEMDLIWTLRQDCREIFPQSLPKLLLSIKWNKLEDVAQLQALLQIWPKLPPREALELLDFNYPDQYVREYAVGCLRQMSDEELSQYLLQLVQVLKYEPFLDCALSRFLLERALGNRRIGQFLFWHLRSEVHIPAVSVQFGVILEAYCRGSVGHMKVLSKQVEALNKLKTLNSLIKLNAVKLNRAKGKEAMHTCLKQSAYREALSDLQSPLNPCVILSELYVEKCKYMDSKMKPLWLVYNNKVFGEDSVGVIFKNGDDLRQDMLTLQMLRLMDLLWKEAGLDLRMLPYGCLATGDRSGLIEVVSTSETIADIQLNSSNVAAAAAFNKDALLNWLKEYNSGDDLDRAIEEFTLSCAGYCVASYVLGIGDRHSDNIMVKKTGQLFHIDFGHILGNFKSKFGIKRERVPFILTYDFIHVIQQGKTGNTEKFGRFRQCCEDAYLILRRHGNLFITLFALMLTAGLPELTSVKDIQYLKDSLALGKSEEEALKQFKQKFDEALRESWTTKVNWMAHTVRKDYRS
HDAC8: Histone deacetylase 8 (HDAC8, Homo sapiens, UniProt Q9BY41)
Chain of UniProt Q9BY41 (whole entry, looked up): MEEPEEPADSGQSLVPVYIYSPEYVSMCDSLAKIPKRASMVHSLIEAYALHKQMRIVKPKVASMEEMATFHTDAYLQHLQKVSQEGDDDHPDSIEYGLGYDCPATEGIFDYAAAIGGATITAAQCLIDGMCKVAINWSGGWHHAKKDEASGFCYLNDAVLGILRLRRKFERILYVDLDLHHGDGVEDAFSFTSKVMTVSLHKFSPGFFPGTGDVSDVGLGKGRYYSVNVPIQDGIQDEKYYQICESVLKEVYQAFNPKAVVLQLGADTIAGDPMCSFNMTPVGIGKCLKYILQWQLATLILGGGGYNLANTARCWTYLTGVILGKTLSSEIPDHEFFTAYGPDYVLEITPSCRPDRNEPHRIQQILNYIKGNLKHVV
SLC10A1: Hepatic sodium/bile acid cotransporter (SLC10A1, Homo sapiens, UniProt Q14973)
AKT1: RAC-alpha serine/threonine-protein kinase (AKT1, Homo sapiens, UniProt P31749)
Chain of UniProt P40306 (whole entry, looked up): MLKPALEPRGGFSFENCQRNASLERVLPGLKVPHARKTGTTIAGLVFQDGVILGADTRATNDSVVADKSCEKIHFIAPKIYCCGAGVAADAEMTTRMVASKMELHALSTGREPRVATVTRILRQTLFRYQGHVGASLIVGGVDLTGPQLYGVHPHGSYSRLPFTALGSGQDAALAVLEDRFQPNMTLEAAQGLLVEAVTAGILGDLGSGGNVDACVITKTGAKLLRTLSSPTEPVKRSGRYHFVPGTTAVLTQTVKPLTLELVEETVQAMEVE

OCC1OC(n2cnc3c(NCc4ccc(Br)s4)ncnc32)C(O)C1O (centres unmarked) — IC50 (Equilibrative nucleoside transporter 1 (SLC29A1, Homo sapiens, UniProt Q99808); ligand displacement, radioligand): 0.15 µM
CCN(CC)CC(=O)Nc1cccc(-n2cc(-c3ccc4ccc(-c5cn(-c6cccc(NC(=O)CN(CC)CC)c6)nn5)cc4c3)nn2)c1 — IC50 (Serine/threonine-protein kinase N2 (PKN2, Homo sapiens, UniProt Q16513); enzyme activity, inhibitor): > 10 µM
Cn1ncc2cc(-c3cncc(Cl)c3N3CCC4(CCNC4=O)CC3)ccc21 — IC50 (Cyclin-dependent kinase 8, with cyclin C (CDK8, Homo sapiens, UniProt P49336)): 0.005 µM
CC(C)C[C@H](NC(=O)[C@H](Cc1ccc(CN)cc1)NC(=O)[C@H](Cc1ccccc1)N=[N+]=[N-])C(=O)N[C@@H](CC1CCC(C)CC1)C(=O)[C@@]1(C)CO1 (some centres unmarked) — IC50 (PSMB6; competitive ABPP; Raji cell lysate): > 10 µM
COCCN(C)CC(=O)NC(Cc1ccc(-c2ccccc2)cc1)B(O)O (centres unmarked) — IC50 (Proteasome subunit beta type-10 / Proteasome subunit beta type-3 (Homo sapiens, UniProt P40306+P49720); β2i activity, inhibitor; immunoproteasome, with: Ac-KQL-AMC): > 10 µM
CCCCn1c(=S)[nH]c2cc3ccccc3cc2c1=O — IC50 (Genome polyprotein protease; enzyme activity, inhibitor, FRET): 9.33 µM
Cc1nc(N(C)c2ccc3c(c2)/C(=C/c2ccccc2C)C(=O)N3C)c2ccccc2n1 — IC50 (PIK3CB; enzyme activity, inhibitor, ADP detection): 0.141 µM
O=C(NO)c1cccc(OS(=O)(=O)Oc2ccccc2)c1 — IC50 (HDAC8; enzyme activity, inhibitor, fluorescence): 0.118 µM
O=C(Nc1cc(-c2ccc(Cl)cc2)[nH]n1)c1cccs1 — IC50 (Cyclin-dependent kinase 2, with cyclin A (CDK2, Homo sapiens, UniProt P24941); radiometric; with: 1 µM ATP): 3.5 µM
CC(C)(C)NC(=O)CC(NC(=O)CCc1ccccc1)C(=O)NCCNC(=O)c1cccc(-c2ccccc2)c1 (centres unmarked) — IC50 (20S proteasome (Plasmodium falciparum, UniProt A0A5K1K7U1+Q8IJT1); inhibitor; with: LLVY-AMC 30 µM, WLW-VS 0.5 µM): 0.0036 µM
OC(CN1C2=NCCCN2c2ccccc21)c1ccc(Br)cc1 (centres unmarked) — IC50 (CatSper channel complex (Homo sapiens, UniProt Q7RTX7+Q86XQ3+Q8NEC5+Q96P56); calcium influx, inhibitor, FLIPR; human sperm; with: high pH, high potassium): 18 µM
COc1cc(-n2cc3cccc(C(N)=O)c3n2)cc(C)c1C1CCCC(O)(CCO)C1 (centres unmarked) — IC50 (Poly [ADP-ribose] polymerase 1 (PARP1, Homo sapiens, UniProt P09874); enzyme activity, inhibitor, radiometric): 0.00055 µM
CC(C)(C)n1ncc2c(=O)n(Cc3cccc(F)c3)c(NCc3ccc(F)cn3)nc21 — IC50 (Cytochrome P450 1A2 (CYP1A2, Homo sapiens, UniProt P05177); enzyme activity, inhibitor): 15.3 µM
C=CC(=O)Nc1ccc(F)c(-c2ncnc3[nH]cc(C(=O)OCC)c23)c1 — IC50 (Tyrosine-protein kinase ITK/TSK (ITK, Homo sapiens, UniProt Q08881); kinase activity; with: ATP 1 mM): 4.63 µM
C[C@H](CCC(=O)NCC(=O)O)[C@H]1CC[C@H]2[C@@H]3[C@H](O)C[C@@H]4C[C@H](O)CC[C@]4(C)[C@H]3CC[C@]12C — IC50 (SLC10A1): 25.8 µM
CNCc1ccc2c(c1)C[C@H](CNC(=N)N)[C@H]2NC(=O)C(=O)Nc1ccc(Cl)c(F)c1 — IC50 (env (Human immunodeficiency virus 1, UniProt Q75760); viral infection; Cf2Th-CD4/CCR5, HIV-1; 48 h): 25.5 µM
CCCCCCC#Cc1cncc(-c2nnc(SCc3cc([N+](=O)[O-])cc([N+](=O)[O-])c3)n2C)c1 — IC50 (mraY (Staphylococcus aureus, UniProt Q2FZ93); enzyme activity, inhibitor): 171 µM
NCC1CCN(c2nc(-c3ccncc3)nc3c(C#CCO)cccc23)CC1 — IC50 (AKT1; enzyme activity, inhibitor, radiometric): 0.019 µM
Cc1ccc2c(c1Br)C(O)(CC(=O)c1ccc3c(c1)OCO3)C(=O)N2 (centres unmarked) — IC50 (Uncharacterized protein (Trypanosoma brucei brucei, UniProt Q386Q8); inhibitor, coupled colorimetric; Trypanosoma brucei): 36.6 µM
ClC1C[N+]2=Cc3ccc4[n]3[Au-]23[n]2c(ccc2-c2nc5ccccc5nc2-4)C=[N+]3C1.F[P-](F)(F)(F)(F)F — IC50 (DNA topoisomerase 1 (TOP1, Homo sapiens, UniProt P11387); enzyme activity, inhibitor): 8.8 µM
CC(C)C[C@H](NC(=O)[C@H](Cc1ccc(CN)cc1)NC(=O)[C@H](Cc1ccccc1)N=[N+]=[N-])C(=O)N[C@@H](CCC1CCCCC1)C(=O)[C@@]1(C)CO1 — IC50 (PSMB6; competitive ABPP; Raji cell lysate): > 10 µM
O=C1Nc2ccccc2C12NC(c1ccc(Cl)c(Cl)c1)C1(C(=O)Nc3ccccc31)N2Cc1ccc(Cl)c(Cl)c1 (centres unmarked) — IC50 (PIK3CB; enzyme activity, inhibitor, ADP detection): 0.304 µM
NCCCC[C@@H]1NC(=O)CNC(=O)[C@H](N)CSSC[C@H](C(N)=O)NC(=O)[C@@H](CCC(=O)O)NC(=O)[C@@H](CO)NC(=O)[C@H](CC(=O)O)NC(=O)CNC1=O — IC50 (Integrin alpha-V/beta-3 (Homo sapiens, UniProt P05106+P06756); ligand displacement, flow cytometry): > 20 µM
O=C1/C(=N\c2ccc(Cl)cc2Br)c2ccccc2N1C(=O)c1ccccc1 — IC50 (PIK3CB; enzyme activity, inhibitor, ADP detection): 0.605 µM
Cc1c(COc2cc(OCc3cccc(C#N)c3)c(CNC(CO)(CO)CO)cc2Cl)cccc1-c1cccc(OCCCCCCC(=O)NO)c1 — IC50 (HDAC8; enzyme activity, inhibitor): > 1 µM
Cc1nc(Nc2ccc3c(c2)/C(=C/c2ccccc2Cl)C(=O)N3C)c2ccccc2n1 — IC50 (PIK3CB; enzyme activity, inhibitor, ADP detection): > 1 µM
Fc1ccc(Nc2nc(NC3CCCCC3)c3ccccc3n2)cc1F — IC50 (Beta-2 adrenergic receptor (ADRB2, Homo sapiens, UniProt P07550, Q170L); β-arrestin2 recruitment, antagonist, BRET; HEK293; mutant Q170L, with: isoprenaline 1 µM): 1.26 µM
Cc1c(COc2cc(OCc3cccc(C#N)c3)c(CNCCO)cc2Cl)cccc1-c1cccc(OCCCCCCC(=O)NO)c1 — IC50 (HDAC8; enzyme activity, inhibitor): > 1 µM
CCn1c(=S)[nH]c2cc3ccccc3cc2c1=O — IC50 (Genome polyprotein protease; enzyme activity, inhibitor, FRET): 6.46 µM
COc1ccc(CN2C3(NC(c4ccc(OC)cc4)C24C(=O)Nc2ccccc24)C(=O)Nc2ccccc23)cc1 (centres unmarked) — IC50 (PIK3CB; enzyme activity, inhibitor, ADP detection): 0.764 µM
O=C(NS(=O)(=O)c1cccs1)c1cc2ccccc2n1Cc1ccc(Br)c2ccccc12 — IC50 (Solute carrier family 2, facilitated glucose transporter member 9 (Mus musculus, UniProt Q3T9X0); transport, inhibitor): 11 ± 1.33 µM
O=C1C(Nc2ccc(Cl)cc2)c2ccccc2N1Cc1ccccc1 (centres unmarked) — IC50 (PIK3CB; enzyme activity, inhibitor, ADP detection): 0.0507 µM
C[C@H](CCC(=O)O)[C@H]1CC[C@H]2[C@@H]3[C@H](O)C[C@@H]4C[C@H](O)CC[C@]4(C)[C@H]3CC[C@]12C — IC50 (SLC10A1; preS1 binding, inhibitor, fluorescence; HepG2-hNTCP-C4; with: myristoylated preS1(2-48)-TAMRA): 37.9 µM
CCn1nc(Cl)c2c1-c1cnc(N)c(c1)O[C@H](C)c1cc(F)ccc1-c1nn(C)cc1C2 — IC50 (Ephrin type-A receptor 2 (EPHA2, Homo sapiens, UniProt P29317); enzyme activity, inhibitor, radiometric): 0.525 µM
Cc1nn(-c2cccc(N)c2)c(=O)c2cnc(Nc3ccc(N4CCNCC4)cc3)nc12 — IC50 (Cyclin-dependent kinase 1, with cyclin B (CDK1, Homo sapiens, UniProt P06493); enzyme activity, inhibitor): > 10 µM
C=CC(=O)N1C[C@H](C)N(c2nc(OC[C@@]34CCCN3C[C@H](F)C4)nc3c(F)c(-c4ccc(F)c5sc(N)c(C#N)c45)c(C(F)(F)F)cc23)C[C@H]1C — IC50 (GTPase KRas, GppNHp-bound; with RAF1-RBD (KRAS, Homo sapiens, UniProt P01116); binding, HTRF): 3.3 µM
Fc1ccc2cccc(-c3ncc4c(N5C[C@H]6CC[C@@H](C5)N6)nc(OCC56CCCN5CCC6)nc4c3F)c2c1F — IC50 (GTPase KRas, with RAF (KRAS, Homo sapiens, UniProt P01116); RAF-KRAS interaction, inhibitor, NanoBRET; HEK293T; 24 h): 5.2 ± 0.3 µM
Nc1ncc(-c2cc(-c3cnn(CC(F)(F)F)c3)ncc2F)nc1C(=O)NC1CNCC(F)C1 (centres unmarked) — IC50 (DNA-dependent protein kinase catalytic subunit (PRKDC, Homo sapiens, UniProt P78527); enzyme activity, inhibitor, radiometric): 0.387 µM
CC(C)(C)OC(=O)N1CCN(c2ccc3c(O)c(C(=O)NCc4ccc(C#N)nc4)ncc3n2)CC1 — IC50 (Hypoxia-inducible factor 1-alpha inhibitor (HIF1AN, Homo sapiens, UniProt Q9NWT6); enzyme activity, inhibitor, HTRF; with: Fe(II) 5 µM): > 10 µM
Cc1cc(C)c(S(=O)(=O)N(CC(=O)O)c2ccc(Nc3ccnc(N4CCCC4)n3)cc2)c(C)c1 — IC50 (AKT1; enzyme activity, inhibitor): > 100 µM
CC(=O)OC1CCC2(C)C(CCC3(C)C2CC=C2C4C(C)C(C)CCC4(C(=O)O)CCC23C)C1(C)C (centres unmarked) — IC50 (UDP-glucuronosyltransferase 1A8 (UGT1A8, Homo sapiens, UniProt Q9HAW9); enzyme activity, inhibitor): > 100 µM
